Measured values of several laboratories.
Compare with care: the assays were run in different laboratories.
Target: Dual specificity protein kinase CLK3 (CLK3, Homo sapiens, UniProt P49761)

Compound | test | setting | how to read | quantity | result
C=CC(=O)Nc1cccc(-c2cnc3[nH]cc(C(=O)NC(C)(C)C)c3n2)c1 | enzyme activity, inhibitor | 0.1 µM |  | inhibition | 15%
Cc1ccc(-c2c(/C=C(\C#N)C(=O)NC(C)C)n(CCCO)c3ncnc(N)c23)cc1 | cell-free assay, competition with immobilised ligand | 1 µM |  | remaining binding | 79%
CNC(=O)C1CCN(c2cc(C)c(F)cc2NC(=O)c2ccc(-c3cc(O)ccc3C)c(C)c2)CC1 | binding, competition with immobilised ligand | 1 µM |  | remaining binding | 88%
O=C=[N][Ru-4]123([n]4c5ccc(O)cc5c5c6c(c7cc(F)c[n+]1c7c54)C(=O)NC6=O)[S+]1CC[S+]2CC[S+]3CC1 (centres unmarked) | enzyme activity | 100 nM, human enzyme, with: 10 µM ATP | reference: untreated | remaining activity | 105%
Nc1ncc2c(n1)-c1c([nH]c3ccc(C4=CCOCC4)cc13)CCC2 | binding, competition with immobilised ligand | 1 µM |  | remaining binding | 90%
COc1c(Cl)cccc1Nc1c(-c2ccncc2C#C[C@@]2(C)CCCN2C(=O)/C=C/CN(C)C)[nH]c2c1C(=O)NCC2 | binding, competition with immobilised ligand | 3 µM |  | remaining binding | 100%
NC(=O)[C@@H](O)C[C@H]1CCc2sc3ncnc(O[C@H]4CC[C@H](N5CCOCC5)CC4)c3c21 | enzyme activity, inhibitor | 10 µM |  | inhibition | 6%
COc1c(OCCCN2CCOCC2)ccc2c1N=C(NC(=O)c1cnc(N)nc1)N1CCN=C21 | kinase activity, inhibitor | 1 µM | reference: untreated control | remaining activity | 117%
C=CC(=O)N1Cc2nc(-c3cc(-c4cc(Cl)cnc4Cl)c(F)cc3F)n(-c3ccncn3)c2C1 | cell-free assay, inhibitor | 1 µM |  | inhibition | 9.4%
Cc1cccc(O[C@H]2CCC[C@@H](C(C)CNCc3ccncc3)C2)c1 (relative stereo) | enzyme activity, inhibitor | 10 µM |  | inhibition | 0%
Cc1cnc2nc1Nc1cccc(c1)COC/C=C/COCc1cc(ccc1OCCN1CCOCC1)N2 | binding | 0.1 µM |  | remaining binding | 100%
CCN1CCN(Cc2ccc(C(=O)Nc3ccc(C)c(NCc4cnc5[nH]ccc5c4OC)c3)cc2C(F)(F)F)CC1 | binding, competition with immobilised ligand | 1 µM |  | remaining binding | 100%
COc1cc(Nc2nc(C)cc(-c3cnn4nc(OC)ccc34)n2)cc(C(F)(F)F)c1 | binding, competition with immobilised ligand | 1 µM |  | remaining binding | 80%
CN1CC[C@@H](COc2cnc(C#N)cc2-c2ccn3nc(NC(=O)C4CC4)cc3c2)C1 | enzyme activity, inhibitor | 1 µM |  | inhibition | 15%

Repeated from above:
Compound | test | setting | how to read | quantity | result
COc1cc(Nc2nc(C)cc(-c3cnn4nc(OC)ccc34)n2)cc(C(F)(F)F)c1 | binding, competition with immobilised ligand | 1 µM |  | remaining binding | 80%
